Assay results of several laboratories.
Numbered parts are unrelated; each lists some results of a single study. Substitutions count along the parent as printed.

Sample 1 — technique: RNA Bind-n-Seq; molecule type: RNA; matrix: in vitro; tested at: not given; notes: RNA with constant flanks, ends assumed; reference: input RNA pool; reading: higher = stronger binding
Target: RING finger protein unkempt homolog, zinc fingers 1-6, GST-SBP tag (UNK, Homo sapiens, UniProt Q9C0B0, residues 30-357)
Construct (chain): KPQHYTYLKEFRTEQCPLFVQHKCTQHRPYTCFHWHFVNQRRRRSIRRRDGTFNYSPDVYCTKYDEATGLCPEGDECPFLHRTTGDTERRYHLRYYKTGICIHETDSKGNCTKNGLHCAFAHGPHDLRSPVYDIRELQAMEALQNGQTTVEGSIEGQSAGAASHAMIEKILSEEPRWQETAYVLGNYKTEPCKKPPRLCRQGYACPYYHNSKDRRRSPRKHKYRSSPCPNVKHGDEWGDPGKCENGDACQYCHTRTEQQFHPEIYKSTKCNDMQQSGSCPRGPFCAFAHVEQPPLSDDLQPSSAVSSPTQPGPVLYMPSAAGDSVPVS
Oligonucleotide	bound/input enrichment [ratio]
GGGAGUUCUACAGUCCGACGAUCAUAUCUUCAGAAGAGGGAGAGACAGAAGCCAAUAACCCCAAGAAGUUGUCUGAUUUUGGAAUCCGAAACGGCAGCCGGCUUCAAGCAGACGACUUCCUCCAGGACUAUACUUUGCUGAUCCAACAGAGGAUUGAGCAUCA	0.215
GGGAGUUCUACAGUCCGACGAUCGGCGUGCUCUGCGUGCUGUCCGCGGACAAGAACACGACCCAGCACCCGAACGUGACGACUUCCGCGCCCAUCUCCAACGUAACCUCGGCGCCGGUGACGUCCCUCCCGCUGGUCACCACUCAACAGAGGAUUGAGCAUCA	0.109
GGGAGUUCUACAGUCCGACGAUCAAUCUAAAACUUGCAACGGAACUCCCAGAUGCUGAACUUAGAAGGACUUUAUGGUCUUCCGCCGCUUUUCCCAAGCUCAAACGGCAAGUUUUGUUGUAUGACCCUCAAGUCAACUCACCCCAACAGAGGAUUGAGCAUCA	0.19
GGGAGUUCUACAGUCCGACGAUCGCACCAAAAUAUCAGAUAGGAGAAAGAAUUCGAGUCAUCUUGGACAUGGAAGAUAAGACUUCCGCUUUUGAACGUGGAUAUGAGUUCCUGGGGGUUGCUUUUAGAGGACUUCCAAAGGUCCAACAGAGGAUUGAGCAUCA	0.687
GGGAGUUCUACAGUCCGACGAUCGAUUUAAAACAUAGAGACCUUGAAUACAGGUCUUGCCAUCGUUUCCUUCAUAAGCCCAGCACCGAAAAGAUGUAUCAGUUUAAUGCUGUGUGUAGACCUGGAAAUUUUUGUCAACAGGACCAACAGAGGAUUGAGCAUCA	0.245
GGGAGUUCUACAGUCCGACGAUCGAAUUCAUGCAUGAGACCCAUGAUGGAGUCCAGGAUAUGGCUUGUGACACAUUUAUUAAAACCGCUCAAAAAUGCCGUAGGCAUUUUGUUCAGGUUCAAGUUGGAGAAGUAAUGCCGUUCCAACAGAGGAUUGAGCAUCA	0.253
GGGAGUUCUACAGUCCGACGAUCCUGAAGCCCAUGUUGCAGCGGGACUUUAUCACUGCUUUACCAGAGCAAGGCUUAGAUCACACCGCAGAAAACAUUCUCUCCUACCUGGAUGCCAGGUCUCUGUGUGCAGCAGAGCUGGUGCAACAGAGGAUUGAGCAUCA	0.0674
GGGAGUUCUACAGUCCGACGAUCGGAAUUUACAUGGUCUAUUGCCGAAAACACAAGAAAACUGCACAUAACUCCGAAGCUGAUUCCGAAGAAAGUUUUAAUGAACAUGAACUGGAGCCCUCAUCACCUAAAAGUAAAAAGAAACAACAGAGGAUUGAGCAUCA	0.234
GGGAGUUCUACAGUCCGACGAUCUUGGAUUCAUUAGCAGAAAGCCCUGAGUCUGACUUUAUGUCUGCUGUGAAUGAGUUUGUGACCGAAGAAAAUUUAUCGUCUCCAAACCCUAUAAGUGAUCCACAAAGUCCAGAAAUGAUGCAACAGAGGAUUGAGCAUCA	0.117
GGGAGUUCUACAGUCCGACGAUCCCAAAGAAGAUACAGUAUGAAAGUAGAGGUGCACUCUCUAUAAUACAAUCUACUGUACAGUCCGCAAGCGAAGUGUUAAAUGGAGAAGAUGCUUGUUUUUAUUAAACAUUUGGAGAUUUACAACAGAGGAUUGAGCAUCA	0.16
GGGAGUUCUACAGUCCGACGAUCUAGAUUGUAUCGCUAAUUUUUACUUUUUAAAAAUUCAUUUAUGUGUGUAUUGUUUGCAUGUCCGGUGUGGGUAUGUGCAGACUAGAGGACUGUGGGAAUCACUUGGAGGUAGUUAUUACACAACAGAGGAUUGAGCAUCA	3.41

Sample 2 — technique: DHFR PCA, deep sequencing; matrix: yeast; added: (+)-ABA 0.11 µM; reference: wild-type fitted maximum; reading: higher = stronger binding
Target: ABI1, truncated, D143A, DHFR fusion (Arabidopsis thaliana)
Notes: methotrexate growth selection, single substitutions
Starting sequence: PYL1, truncated, DHFR fusion (Arabidopsis thaliana); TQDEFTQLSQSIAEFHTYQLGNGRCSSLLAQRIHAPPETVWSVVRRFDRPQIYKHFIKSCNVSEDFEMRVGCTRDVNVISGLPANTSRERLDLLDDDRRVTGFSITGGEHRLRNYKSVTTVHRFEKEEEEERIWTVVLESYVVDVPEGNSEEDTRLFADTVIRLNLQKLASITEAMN
Substitution	relative binding score [%]
Q7S	33.4
S27W	2.62
L20Q	42.5
P83S	24.6
I57R	-0.423
E129R	18.1
V143A	7.04
F47W	-2.37
S26P	-1.19
F124L	46.4
D75F	27.6
E130D	49.6
F66M	11
C60I	3.28
Q10E	54.8
G148T	1.9

Sample 3 — target: CREBRF, bZIP domain (human); technique: DHFR protein complementation; matrix: yeast; reference: wild-type JUN-FOS pair; reading: higher = stronger binding
Notes: single substitutions, most at no-binding floor
Starting sequence: JUN, bZIP domain (human); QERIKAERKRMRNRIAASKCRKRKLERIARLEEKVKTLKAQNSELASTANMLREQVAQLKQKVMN; partner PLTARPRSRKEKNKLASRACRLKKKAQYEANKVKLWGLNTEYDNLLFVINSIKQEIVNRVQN
Substitution	binding fitness [natural log]
A40T	-1.29
E32K	-1.29
Q58S	-1.6
L45H	-1.56
A40S	-1.52
S43I	-1.47
M51D	-1.55
A29S	-1.4
S43K	-1.48
E33G	-1.46
K34V	-1.58
E32C	-1.42
Q41E	-1.3
Q41K	-1.5
N42E	-1.49
K39Q	-1.28
L38M	-1.4
L45P	-1.48
A49K	-1.3
V35L	-1.57
A57E	-1.58
T37C	-1.17
K39H	-1.42
L52A	-1.58
K36N	-1.52

Sample 4 — target: CCNB2, cyclin fold, Cln2 fusion (human); technique: yeast growth competition, sequencing; matrix: yeast; notes: weak parent motif; reference: not given; reading: higher = stronger binding
Starting sequence: CDC25A docking peptide (human); PPHRRRLLFACSP
Substitution	normalised enrichment score
P13G	0.776
P13N	0.939
H3N	0.42
H3K	0.158
P13R	0.35
L7K	0.708
L8T	0.648
L7F	0.719
C11Q	0.787
R6Y	0.088
L8R	0.684
P1G	0.297
C11A	0.731
L7N	0.95
R4H	-0.0778
F9I	0.545
L8Q	-0.145
R6P	-0.345
R5F	0.273
H3E	-0.175
R6G	0.259
L8I	1
P13Y	0.685

Sample 5 — technique: RNA Bind-n-Seq; molecule type: RNA; matrix: in vitro; tested at: 200 nM; notes: whole 134-nt RNA, ends assumed; added: 150 mM LiCl; reference: input library; reading: higher = stronger binding; library: 7-deaza-guanosine replaces G
Target: Fragile X messenger ribonucleoprotein 1, C-terminal low-complexity region (Fmr1, Mus musculus, UniProt P35922)
Oligonucleotide	log2 enrichment
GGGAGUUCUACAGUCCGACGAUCAGUCCUGUGCUACACAUCGUAUGUACCGAAUCGGGUGGGUUUUUUUGGGUUUUUGGGAAAGUAUUAUGUUACGCCGUUCGGAUCUGCACUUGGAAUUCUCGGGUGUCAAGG	-0.919
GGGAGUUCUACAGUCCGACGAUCAGUCCUGUGCUACACAUCGUAUGUACCGAAUCGGAAAAAAGGAAAAAAGGAAAAAAGGAAAGUAUUAUGUUACGCCGUUCGGAUCUGCACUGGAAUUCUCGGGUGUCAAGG	-1.66
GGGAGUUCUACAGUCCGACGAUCCAAGUCCUGUGCUACACAUCGUAUGUACCGAAUCGGGAAAGGGGAAAGGAAAGGGGAAAGUAUUAUGUUACGCCGUUCGGAUCUGCACUUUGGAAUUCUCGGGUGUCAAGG	-0.711
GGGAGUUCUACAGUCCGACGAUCAAGUCCUGUGCUACACAUCGUAUGUACCGAAUCGGGGAAAAGGAAAAGGAAAAGGGAAAGUAUUAUGUUACGCCGUUCGGAUCUGCACUUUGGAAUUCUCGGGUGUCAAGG	-0.748
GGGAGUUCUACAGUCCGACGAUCUCCUGUGCUACACAUCGUAUGUACCGAAUCGGGGUUUUUUUGGGGUUUGGGGAAAGGGGAAAGUAUUAUGUUACGCCGUUCGGAUCUGCAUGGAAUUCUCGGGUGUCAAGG	-1.06
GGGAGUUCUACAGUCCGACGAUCAGUCCUGUGCUACACAUCGUAUGUACCGAAUCGGUUUUUGGGUUUUUGGUUUUUGGGAAAGUAUUAUGUUACGCCGUUCGGAUCUGCACUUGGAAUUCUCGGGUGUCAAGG	-1.93
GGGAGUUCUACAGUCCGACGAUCUAACUUUAGAGGAGGAUCUGAUGGAUAUGGCAGUGGACGUGGAUUUGGGGAUGGCUAUAAUGGGUAAGGAGGAGGACCUGGAGGUGGCAAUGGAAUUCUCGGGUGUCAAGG	0.318
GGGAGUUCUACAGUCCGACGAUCGUCCUGUGCUACACAUCGUAUGUACCGAAUCGGGUUUUUUUGGGAAAAAGGGAAAGGGAAAGUAUUAUGUUACGCCGUUCGGAUCUGCACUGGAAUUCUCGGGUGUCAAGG	-1.84
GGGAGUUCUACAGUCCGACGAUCUCCUCAAGUCCUGUGCUACACAUCGUAUGUACCGAAUCGGGGCGGCGGCGGAAAGUAUUAUGUUACGCCGUUCGGAUCUGCACUUCCAGCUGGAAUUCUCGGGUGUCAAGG	0.00781
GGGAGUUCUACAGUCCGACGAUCGCAGGAAGUAAAAACAAAUGGAAAUGCUUCGGAUAGUGGCAGGGGUGGGGGUUGCUAAGGAAAGGGUGGGAUGGGAGUGGGGAAAGAGUUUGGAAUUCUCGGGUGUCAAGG	1.2
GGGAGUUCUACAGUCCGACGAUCCCUGUGCUACACAUCGUAUGUACCGAAUCGGUUUUUUUGGGUUUUUUUGGUUUUUUUGGGAAAGUAUUAUGUUACGCCGUUCGGAUCUGCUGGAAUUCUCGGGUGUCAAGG	-0.834

Repeated from above (sample 4):
Substitution	normalised enrichment score
L8T	0.648
L7F	0.719
C11Q	0.787
R6Y	0.088
L8R	0.684
P1G	0.297
C11A	0.731
